Measurements gathered from unrelated publications.
A part holds a random share of what one study measured. Substitutions count along the parent as printed.

Series 1
Target: ABI1, truncated, D143A, DHFR fusion (Arabidopsis thaliana, UniProt P49597)
Technique: DHFR PCA, dose-response
Matrix: yeast
Setting: Hill fit, mean, not affinity
With: (+)-ABA, dose series
Reading: lower = more sensitive
Parent: PYL1, truncated, DHFR fusion (Arabidopsis thaliana, UniProt Q8VZS8); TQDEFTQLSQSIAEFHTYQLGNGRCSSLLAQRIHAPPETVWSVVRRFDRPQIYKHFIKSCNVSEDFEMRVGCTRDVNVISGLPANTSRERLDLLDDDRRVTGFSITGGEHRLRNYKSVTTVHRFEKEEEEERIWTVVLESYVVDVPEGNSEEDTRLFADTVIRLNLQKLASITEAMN
Substitution | ABA EC50 [µM]
V145P | 67.1
L164F | 1.51
A175N | 2.19
I52T | 1.76
N85D | 3.25
V62L | 3.01
V118K | 3.51
R99E | 223
G23C | 21
D48G | 92.2
I172C | 8.11
E4D | 1.87
V43A | 58.1
L138W | 416
E130S | 1.6
N165K | 181
V136M | 1.02
G148R | 35.3
T39G | 21.6
M68D | 42.2

Series 2
Target: Centromere-binding protein 1, full length, His-tagged (CBF1, Saccharomyces cerevisiae, UniProt P17106, residues 1-351)
Chain of UniProt P17106 (whole entry, looked up): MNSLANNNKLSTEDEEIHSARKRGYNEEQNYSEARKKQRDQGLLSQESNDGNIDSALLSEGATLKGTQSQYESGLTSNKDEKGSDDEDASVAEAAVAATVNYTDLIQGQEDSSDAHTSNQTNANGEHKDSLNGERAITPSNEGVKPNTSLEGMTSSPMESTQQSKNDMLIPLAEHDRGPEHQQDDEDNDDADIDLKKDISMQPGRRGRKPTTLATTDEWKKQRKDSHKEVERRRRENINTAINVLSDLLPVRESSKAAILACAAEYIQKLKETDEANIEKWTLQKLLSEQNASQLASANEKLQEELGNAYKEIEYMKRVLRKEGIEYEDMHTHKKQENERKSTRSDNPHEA
Technique: competition protein-binding microarray
Molecule type: double-stranded DNA, one strand shown
Matrix: in vitro
Concentration: 2 µM
Setting: whole 60-bp probe, lowest competitor level
With: Pho4 competitor, 0.05 µM
Reading: higher = stronger binding
Constant ends, left off below: … GTCTTGATTCGCTTGACGCTGCTG
Oligonucleotide | fluorescence intensity [a.u.]
CGGGGTTAAGTTTGTCACGATACTTGCTTGCAGCAG | 169
CTTCTGTAAATTTGGACCGTGGGTGGACGCGCCCCG | 76.2
AAAGCGGTAATTTTTCACGTGTCATCACATATCTAT | 927
CTAACGAAGGTTTGAGCCGTGGGTGACAAGCCAAGT | 59.9
CACCGGATATTGAATCACATGGGCTTTCAGATTTCA | 835
TGGGTTTCTGTGAACACCGTGCCAGACACCATTGAC | 76.7
AAATTACTAAGTTTTCACGTGGACTACCCCGTATGA | 741
TTGCGAAAGCCGCAGAACGTGATGGATAAACATCAA | 339
CCTCTTTACATTTGGCATGCGTTGACACTATAGATT | 94.3
CGTCCTAGTGATTGTTTCGTGGGTGCCATGAGGAAG | 90.3
ATAATCTTCTCAGGACACGTAATCTTCTGATCCAGA | 95.9
ATGGGTACCACAAAGCGAGGTCGCTTTTGAAGAGCC | 49.6
CTCCCTCTGTGCGGCCACGTGGGACTCGTCGTCTTG | 695
CGGGGTTAAGTTTTTCACGTGTCTTGCTTGCAGCAG | 659
AAGACGAAATTCTTGTTCGTGCCGATGTTGCCCTTT | 66.4
GATGGATTCAGTCCACACATGAGATTCGCAGGATGT | 73.3
CTGATTTGCCTGTACCACATGTCATAAAAACTGCGG | 237
CGTCCTAGTGATTGTCACTTAACTTCCATGAGGAAG | 83
CGTCCTAGTGATTGGACTGTGGGTGCCATGAGGAAG | 74.2
TAAGGCCTTTATTGCGTCGTGCTTTCTCCTCTCATA | 67.4
TTGGCTACGTCCCTACACGTGTTTTGCGGTCTCGCT | 724

Series 3
Target: Histone acetyltransferase KAT6A, both winged helices, GST fusion (KAT6A, Homo sapiens, UniProt Q92794, residues 1-181)
Technique: protein binding microarray
Molecule type: double-stranded DNA, one strand shown
Matrix: in vitro
Concentration: not given
Setting: 8-mer, flanks averaged, mean of 2 arrays, mostly near background
Baseline: not given
Reading: higher = stronger binding
Construct (chain): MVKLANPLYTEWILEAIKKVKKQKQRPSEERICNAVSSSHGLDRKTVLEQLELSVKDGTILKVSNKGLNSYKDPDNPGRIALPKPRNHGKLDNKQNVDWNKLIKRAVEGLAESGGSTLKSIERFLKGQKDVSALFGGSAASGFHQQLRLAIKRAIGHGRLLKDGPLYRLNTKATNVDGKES
Oligonucleotide | E-score
ATCTGGTG | -0.118
TCCGCCAA | 0.0545
GTTACTTA | -0.0642
GCGCTCCC | 0.203
GGAATCGA | 0.0374
AAGCGCGC | 0.397
CCCTCGCG | 0.22
ATCCTGGG | -0.104
ATCATGAC | -0.165
AGAGTCAA | -0.0566
CTGACTAA | -0.0113
CGGGAAGC | 0.254
ATAGCCGC | 0.366
GCCTTCGC | 0.093
AAAGTACA | -0.0864
CGCTTCGC | 0.319
GACGTGCC | 0.0121
AAGGTGTG | -0.128
GGTTTAGA | 0.0359

Series 4
Target: Prothrombin, mature alpha-thrombin (F2, Homo sapiens, UniProt P00734)
Technique: aptamer microarray, sandwich
Molecule type: DNA with 2'F-ANA
Matrix: in vitro
Concentration: 200 nM
Setting: whole 15-mer aptamer, many near background
With: Cy3 exosite-II aptamer, 400 nM
Reading: higher = stronger binding
Oligonucleotide: GGTTGGTGTGGTTGG
Modification | mean fluorescence intensity
2'F-ANA at 3 5 6 10 11 12 13 14 | 58.7 a.u.
2'F-ANA at 4 6 8 10 11 12 | 93.9 a.u.
2'F-ANA at 1 2 4 5 7 10 11 13 14 15 | 44.5 a.u.
2'F-ANA at 3 5 7 | 145 a.u.
2'F-ANA at 1 2 3 4 5 8 14 15 | 55.1 a.u.
2'F-ANA at 1 3 5 6 7 8 9 10 12 14 | 43.5 a.u.
2'F-ANA at 1 4 5 9 10 12 13 | 44.9 a.u.
2'F-ANA at 1 2 4 8 9 13 15 | 92 a.u.
2'F-ANA at 2 3 5 7 11 14 15 | 48.7 a.u.
2'F-ANA at 2 3 5 7 8 9 12 13 14 15 | 58 a.u.
2'F-ANA at 1 2 6 7 10 11 14 | 51.8 a.u.
2'F-ANA at 1 4 5 6 7 9 10 11 13 | 47.4 a.u.
2'F-ANA at 1 2 3 6 7 9 10 13 14 | 53.2 a.u.
2'F-ANA at 1 7 8 9 13 14 15 | 59.2 a.u.
2'F-ANA at 2 4 5 6 7 9 10 11 13 14 15 | 48.6 a.u.
2'F-ANA at 1 4 5 7 8 9 12 15 | 113 a.u.
2'F-ANA at 1 2 3 5 7 8 10 11 | 48.1 a.u.
2'F-ANA at 5 6 9 10 11 14 | 45.3 a.u.
2'F-ANA at 1 5 10 13 14 15 | 54.2 a.u.
2'F-ANA at 3 5 6 9 10 13 15 | 52.9 a.u.

Series 5
Target: RNA binding protein fox-1 homolog 2, RRM domain, GST-SBP tag (RBFOX2, Homo sapiens, UniProt O43251-10, residues 100-194)
Technique: RNA Bind-n-Seq
Molecule type: RNA
Matrix: in vitro
Concentration: 365 nM
Setting: natural RNA segment, single round, ends assumed
Baseline: no-protein control
Reading: higher = stronger binding
Constant ends, left off below: GGGAGUUCUACAGUCCGACGAUC … UGGAAUUCUCGGGUGCCAA
Residues (chain): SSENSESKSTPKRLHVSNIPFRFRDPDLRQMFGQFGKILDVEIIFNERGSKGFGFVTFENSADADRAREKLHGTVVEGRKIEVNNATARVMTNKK
Oligonucleotide | RBNS enrichment (R)
UUUGGGGUGCAAAUGCUAAUGUCAAACUUGAGUCACAAAGAACAUGUAGAAAACAAAAUGGAUAAAAUCUGAUAUGUAUUGUUUGGGAUCCUAUUGAACCAUGUUUGUGG | 7.69
UGUACUCUGAAUUUUCAGGAACCGUCAAAGGAGCAGCAGCAAAUUCACAUAUUUUCGACUUGAGAAAUGCUUGUGGUAUGUGUUUUCCAAACUGCCCCCUAUAUGUAAAG | 0.821
GUUACAUCAGAAUGUCAGAUGGAAGAAAAACAAGCUGGCCCUGGGCAAAAUGCUCAACUGUCAGCCCCGCAAGUAGACAGCUGUGUGCCGGACACCACCUAGCUGCAGCA | 1.42
AUAAAAUGAGAAGAGACCAUUCCAUCAUUGAAGUGUUGGAAUAUAAAAAGACAUUCCAGAGCAUAGCCUUUUGGUAACUUUCUAGGUAAUCUUGCAAUCUCUCCAUACUG | 0.349
CCUCAUGUCCUCAGUGGUCUGGCAAGCCGUUCACCCCUGCUGACAGGCUUCAAGCUGCUAAACACCUUCGAGGGCAGUGGCCUCAUCAGUCUGCCAGGGAGACAAGUACA | 0.367
GACUGUAGAGAAACUACUUUGAACCUGUGGUUGAAAACGAUGAAAUGUGAUAAAUCUUUUUGUAGUUCCUUGGAGGAUAGCUGAUAUCCCACUCCUUCGUUUUUCCUCUC | 0.447
CUACUUGGAAUGUGGAUAAAUGUAAAAAGAAGAAAAGUUAGAAGAGCAAUAUGUUUCCUUCUCUGUAACAGUGUCCUAACAGUGAAAAUCAGAGUUAUUUGUUAAUUUUU | 1.13
UCACAUUUAUUUUUCUUAAAGUACUUUUGUUCCAAAGGGGCCUUGUGGCGCCAGAGAGCUAGGAACUGUGGCUCCGUCCAUACCCGUUUCCACACACUGACCCUUCAGAG | 0.166
GUGAACUGUUUUUGUGCCAAGAAACCCUGGACCUGGGGCCAAGUAUUUCCCAAGCCAAGCAUCCACUUGUCUGUGUCUGGGAAGGGAUGGCCAAGGCCGCUAGGGUCCUU | 0.283
GUCUAUAAACAGGUGACACUGGCUGCAGCAAAAAGCCAUUCGAUCCACACAAAUUGAUCUUCUAUCAUCUUGGAAUCUGAAUUGCAGGGAGGAGCAGCAUGUAAGACGAC | 11.4
GGAUCCAUCGCUGAUGGUGUUUCUUUAGCCCCAUCCCAAUUGGCCUAAAACAUUUGUCACCAGAACAGUGGGGAAAAGCCUUCCUUUCCAGCCAUGUCUGACAGUGAGCA | 0.529
CCCUGUGGUCUUUUGUUCAACAUUGUACAAUGUAGAACUCUGUCCAACACUAAUUUAUUUUGUCUUGAGUUUUACUACAAGAUGAGACUAUGGAUCCCGCAUGCCUGAAU | 2.48

Repeated from above (series 1):
Substitution | ABA EC50 [µM]
I52T | 1.76
G148R | 35.3
T39G | 21.6
V118K | 3.51
I172C | 8.11
E130S | 1.6
